{"data": "Experimental data gathered from unrelated publications", "GAP50": "Glideosome-associated protein 50 (GAP50, Plasmodium falciparum, UniProt Q8I2X3)", "USP51 ZnF-UBD domain": "Ubiquitin carboxyl-terminal hydrolase 51, ZnF-UBD domain (USP51, Homo sapiens, UniProt Q70EK9)", "CDK9": "Cyclin-dependent kinase 9 (CDK9, Homo sapiens, UniProt P50750)", "Kir3.1/Kir3.2": "Kir3.1/Kir3.2 (Homo sapiens, UniProt P48051+P48549)", "note": "Compare with care: the assays were run in different laboratories. Numbers after ± are the reported error.", "UniProt Q8I2X3, sequence (whole entry, looked up)": "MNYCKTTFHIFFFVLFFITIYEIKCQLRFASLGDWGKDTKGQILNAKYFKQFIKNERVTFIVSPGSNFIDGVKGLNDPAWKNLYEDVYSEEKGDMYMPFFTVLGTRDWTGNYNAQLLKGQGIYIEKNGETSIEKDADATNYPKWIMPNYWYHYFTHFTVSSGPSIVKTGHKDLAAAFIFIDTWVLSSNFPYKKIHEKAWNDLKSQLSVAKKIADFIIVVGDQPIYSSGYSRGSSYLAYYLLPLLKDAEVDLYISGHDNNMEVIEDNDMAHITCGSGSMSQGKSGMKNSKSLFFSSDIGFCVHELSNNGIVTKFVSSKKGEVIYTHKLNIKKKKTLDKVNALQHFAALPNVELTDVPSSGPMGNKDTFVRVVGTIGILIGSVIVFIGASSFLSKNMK", "UniProt P48549, sequence (whole entry, looked up)": "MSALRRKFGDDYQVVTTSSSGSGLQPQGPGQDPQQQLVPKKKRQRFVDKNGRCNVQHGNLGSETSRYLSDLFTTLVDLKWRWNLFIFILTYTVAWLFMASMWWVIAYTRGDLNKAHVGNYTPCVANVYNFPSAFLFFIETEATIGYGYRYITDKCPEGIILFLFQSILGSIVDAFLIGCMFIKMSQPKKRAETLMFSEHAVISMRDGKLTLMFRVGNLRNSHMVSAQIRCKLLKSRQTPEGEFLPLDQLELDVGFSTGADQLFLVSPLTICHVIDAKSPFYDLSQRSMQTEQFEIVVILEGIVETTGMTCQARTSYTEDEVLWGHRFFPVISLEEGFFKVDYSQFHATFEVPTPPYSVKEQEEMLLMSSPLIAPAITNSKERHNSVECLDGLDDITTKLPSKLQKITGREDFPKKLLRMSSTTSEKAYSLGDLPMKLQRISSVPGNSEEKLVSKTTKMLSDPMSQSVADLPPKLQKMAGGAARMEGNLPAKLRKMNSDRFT", "UniProt Q70EK9, sequence (whole entry, looked up)": "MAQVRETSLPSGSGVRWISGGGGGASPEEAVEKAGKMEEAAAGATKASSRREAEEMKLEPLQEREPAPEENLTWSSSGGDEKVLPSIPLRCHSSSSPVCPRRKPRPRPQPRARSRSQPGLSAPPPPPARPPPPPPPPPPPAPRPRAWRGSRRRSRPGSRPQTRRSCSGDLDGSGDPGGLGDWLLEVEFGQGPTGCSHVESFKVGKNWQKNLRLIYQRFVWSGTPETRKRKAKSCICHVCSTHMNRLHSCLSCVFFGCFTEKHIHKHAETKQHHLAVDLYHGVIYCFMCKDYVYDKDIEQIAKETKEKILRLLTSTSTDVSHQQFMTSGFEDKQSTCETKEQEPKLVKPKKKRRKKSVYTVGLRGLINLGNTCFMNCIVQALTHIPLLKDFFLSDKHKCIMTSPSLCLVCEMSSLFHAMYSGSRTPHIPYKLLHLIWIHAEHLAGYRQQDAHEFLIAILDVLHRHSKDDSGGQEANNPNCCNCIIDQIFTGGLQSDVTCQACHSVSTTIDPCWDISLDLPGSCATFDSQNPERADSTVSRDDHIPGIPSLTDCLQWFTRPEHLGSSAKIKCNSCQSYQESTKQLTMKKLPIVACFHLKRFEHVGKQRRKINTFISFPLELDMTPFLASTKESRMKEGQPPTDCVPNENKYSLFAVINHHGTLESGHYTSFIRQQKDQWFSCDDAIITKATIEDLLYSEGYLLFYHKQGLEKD", "UniProt P48051, sequence (whole entry, looked up)": "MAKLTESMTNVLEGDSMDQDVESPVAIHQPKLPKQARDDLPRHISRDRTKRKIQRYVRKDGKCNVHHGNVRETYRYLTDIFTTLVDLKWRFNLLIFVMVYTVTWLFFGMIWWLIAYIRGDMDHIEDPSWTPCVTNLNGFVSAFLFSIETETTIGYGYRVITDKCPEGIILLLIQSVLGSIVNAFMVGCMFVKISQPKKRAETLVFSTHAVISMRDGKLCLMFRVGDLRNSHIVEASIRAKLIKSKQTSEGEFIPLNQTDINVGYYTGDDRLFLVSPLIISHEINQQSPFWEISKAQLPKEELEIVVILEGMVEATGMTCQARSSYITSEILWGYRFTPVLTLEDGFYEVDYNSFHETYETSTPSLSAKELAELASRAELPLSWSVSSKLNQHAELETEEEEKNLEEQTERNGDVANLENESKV", "UniProt P50750, sequence (whole entry, looked up)": "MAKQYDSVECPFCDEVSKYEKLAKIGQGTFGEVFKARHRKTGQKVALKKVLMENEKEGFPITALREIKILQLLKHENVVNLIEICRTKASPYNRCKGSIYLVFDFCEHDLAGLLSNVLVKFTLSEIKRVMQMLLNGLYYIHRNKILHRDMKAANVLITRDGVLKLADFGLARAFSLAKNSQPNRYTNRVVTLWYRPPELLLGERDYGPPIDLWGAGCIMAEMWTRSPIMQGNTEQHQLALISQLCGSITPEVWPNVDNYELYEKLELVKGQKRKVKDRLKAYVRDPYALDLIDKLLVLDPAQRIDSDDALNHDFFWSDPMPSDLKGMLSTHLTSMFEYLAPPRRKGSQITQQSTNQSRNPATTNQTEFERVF", "UniProt Q8IU85, sequence (whole entry, looked up)": "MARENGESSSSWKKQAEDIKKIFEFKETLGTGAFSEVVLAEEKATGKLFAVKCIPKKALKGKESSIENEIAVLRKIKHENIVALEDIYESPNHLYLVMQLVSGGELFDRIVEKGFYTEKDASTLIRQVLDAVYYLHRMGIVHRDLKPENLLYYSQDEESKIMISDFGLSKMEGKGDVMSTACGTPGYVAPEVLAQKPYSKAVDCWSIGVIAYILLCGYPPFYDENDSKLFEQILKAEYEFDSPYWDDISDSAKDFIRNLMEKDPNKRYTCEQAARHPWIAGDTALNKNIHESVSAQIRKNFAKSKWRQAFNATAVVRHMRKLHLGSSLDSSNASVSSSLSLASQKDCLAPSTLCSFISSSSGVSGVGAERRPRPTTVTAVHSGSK", "UniProt Q969S8, sequence (whole entry, looked up)": "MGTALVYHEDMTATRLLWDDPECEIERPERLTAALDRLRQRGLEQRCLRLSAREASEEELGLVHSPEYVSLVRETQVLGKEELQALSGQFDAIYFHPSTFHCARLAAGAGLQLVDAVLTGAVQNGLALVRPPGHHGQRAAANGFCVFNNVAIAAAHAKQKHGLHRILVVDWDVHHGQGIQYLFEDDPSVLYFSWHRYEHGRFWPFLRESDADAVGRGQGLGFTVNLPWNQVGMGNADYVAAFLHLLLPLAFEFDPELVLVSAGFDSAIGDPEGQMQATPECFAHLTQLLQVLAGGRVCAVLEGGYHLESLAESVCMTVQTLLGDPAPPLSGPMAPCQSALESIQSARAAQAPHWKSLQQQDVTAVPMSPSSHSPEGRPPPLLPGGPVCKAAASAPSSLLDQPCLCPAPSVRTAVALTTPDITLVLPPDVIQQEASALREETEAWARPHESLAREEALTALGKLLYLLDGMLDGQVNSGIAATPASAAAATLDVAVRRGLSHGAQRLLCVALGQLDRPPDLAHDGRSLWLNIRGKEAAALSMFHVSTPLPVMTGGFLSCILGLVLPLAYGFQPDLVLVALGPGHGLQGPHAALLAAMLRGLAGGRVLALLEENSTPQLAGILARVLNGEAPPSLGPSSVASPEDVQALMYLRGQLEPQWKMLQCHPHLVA", "UniProt P10636, sequence (whole entry, looked up)": "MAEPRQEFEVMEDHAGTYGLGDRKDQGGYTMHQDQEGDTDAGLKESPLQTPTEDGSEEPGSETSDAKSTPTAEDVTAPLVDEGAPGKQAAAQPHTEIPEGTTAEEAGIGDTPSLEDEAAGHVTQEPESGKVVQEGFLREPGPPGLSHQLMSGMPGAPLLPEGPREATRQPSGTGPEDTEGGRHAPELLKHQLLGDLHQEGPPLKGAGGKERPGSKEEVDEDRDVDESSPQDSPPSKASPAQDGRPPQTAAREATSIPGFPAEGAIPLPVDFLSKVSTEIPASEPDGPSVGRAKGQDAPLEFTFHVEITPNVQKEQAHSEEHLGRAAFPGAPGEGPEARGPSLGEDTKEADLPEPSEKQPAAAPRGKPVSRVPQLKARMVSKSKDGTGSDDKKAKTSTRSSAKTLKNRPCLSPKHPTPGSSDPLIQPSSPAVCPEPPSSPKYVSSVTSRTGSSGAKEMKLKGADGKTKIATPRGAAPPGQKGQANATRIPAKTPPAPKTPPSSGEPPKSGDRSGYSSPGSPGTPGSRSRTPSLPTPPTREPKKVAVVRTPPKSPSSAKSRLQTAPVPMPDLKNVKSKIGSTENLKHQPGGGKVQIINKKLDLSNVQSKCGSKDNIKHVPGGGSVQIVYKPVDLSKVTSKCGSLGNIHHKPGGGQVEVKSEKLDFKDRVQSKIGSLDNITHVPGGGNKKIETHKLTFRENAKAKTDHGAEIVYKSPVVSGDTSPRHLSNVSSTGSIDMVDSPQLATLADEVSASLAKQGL", "UniProt P00388, sequence (whole entry, unmodified, looked up)": "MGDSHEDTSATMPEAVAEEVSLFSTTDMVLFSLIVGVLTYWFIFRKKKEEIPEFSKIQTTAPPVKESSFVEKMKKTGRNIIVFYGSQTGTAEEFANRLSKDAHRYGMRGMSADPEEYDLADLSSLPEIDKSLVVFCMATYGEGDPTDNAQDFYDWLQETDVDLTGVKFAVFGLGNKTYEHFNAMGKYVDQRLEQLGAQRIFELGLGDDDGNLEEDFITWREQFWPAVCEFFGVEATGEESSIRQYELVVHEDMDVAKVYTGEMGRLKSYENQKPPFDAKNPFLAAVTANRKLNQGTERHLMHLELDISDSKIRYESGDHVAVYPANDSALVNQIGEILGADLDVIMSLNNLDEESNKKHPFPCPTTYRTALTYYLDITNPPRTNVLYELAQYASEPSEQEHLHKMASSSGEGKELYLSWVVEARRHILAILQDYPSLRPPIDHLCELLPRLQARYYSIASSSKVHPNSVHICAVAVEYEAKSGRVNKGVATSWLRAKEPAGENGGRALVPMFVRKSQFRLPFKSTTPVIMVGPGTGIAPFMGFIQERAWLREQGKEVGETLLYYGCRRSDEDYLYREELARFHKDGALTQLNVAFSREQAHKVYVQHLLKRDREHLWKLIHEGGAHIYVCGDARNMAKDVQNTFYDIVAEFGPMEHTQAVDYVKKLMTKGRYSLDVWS"}
{"Structure (SMILES)": "CNC(=O)[C@@H]1Cc2c([nH]c3cc(Cl)ccc23)C2(CCN(CCc3ccccc3)CC2)N1", "target": "GAP50", "test": "binding, surface plasmon resonance", "setting": "1:1 binding model", "endpoint": "Kd", "result": "65.3 µM"}
{"Structure (SMILES)": "CN(CCCCCCNC(=O)COc1ccc(C2CCC(=O)NC2=O)cc1)Cc1cn(Cc2ccc(C(=O)NO)cc2)c2ccccc12 (centres unmarked)", "target": "Polyamine deacetylase HDAC10 (HDAC10, Homo sapiens, UniProt Q969S8)", "test": "degrader, western blot", "system": "MM1.S cells", "setting": "24 h", "endpoint": "DC50", "result": "0.0079 ± 0.0033 µM"}
{"Structure (SMILES)": "CCCCCCCC/C=C\\CCCCCCCCCCCCC", "target": "uncharacterized protein (Drosophila suzukii, UniProt A0AB39ZCT4)", "test": "binding, bis-ANS competition fluorescence", "setting": "pH 7.4, together with: bis-ANS", "endpoint": "IC50", "result": "> 50 µM"}
{"Structure (SMILES)": "O=C(O)CCc1nccs1", "target": "USP51 ZnF-UBD domain", "endpoint": "Kd", "result": "> 1000 µM"}
{"Structure (SMILES)": "c1ccc(Oc2ccc(-c3cc(C4CCOCC4)[nH]n3)cc2)cc1", "target": "GAP50", "test": "binding, surface plasmon resonance", "setting": "1:1 binding model", "endpoint": "Kd", "result": "14.3 µM"}
{"Structure (SMILES)": "CC(C)(C)c1cnc(CSc2cnc(NC(=O)C3CCN(C(=O)CCCCCCN4Cc5cc6c(cc5C4)C(=O)N(C4CCC(=O)NC4=O)C6=O)CC3)s2)o1 (centres unmarked)", "target": "CDK9", "test": "degrader, Western blot", "system": "RH5 rhabdomyosarcoma", "setting": "6 h", "endpoint": "DC50", "result": "< 0.01 µM"}
{"Structure (SMILES)": "CCCCCC/C=C\\CCCCCCCCCCOC(C)=O", "target": "uncharacterized protein (Drosophila suzukii, UniProt A0AB39ZCT4)", "test": "binding, bis-ANS competition fluorescence", "setting": "pH 7.4, together with: bis-ANS", "endpoint": "IC50", "result": "> 50 µM"}
{"Structure (SMILES)": "COc1ccc2nc(/N=N/c3ccc(N(C)C)cc3)sc2c1", "target": "Microtubule-associated protein tau, paired helical filaments (MAPT, Homo sapiens, UniProt P10636)", "test": "thioflavin S displacement, fluorescence", "system": "patient-derived PHF tau", "setting": "together with: thioflavin S", "endpoint": "AC50", "result": "0.048 ± 0.004 µM"}
{"Structure (SMILES)": "CC(C)(C)c1cnc(CSc2cnc(NC(=O)C3CCN(C(=O)CCCCN4Cc5cc6c(cc5C4)C(=O)N(C4CCC(=O)NC4=O)C6=O)CC3)s2)o1 (centres unmarked)", "target": "CDK9", "test": "degrader, Western blot", "system": "TC-71", "endpoint": "DC50", "result": "0.0112 ± 0.0049 µM"}
{"Structure (SMILES)": "CN1CCN(c2ccc(Nc3ncc4cc(C#N)c(=O)n(C5CCCC5)c4n3)cc2)CC1", "target": "Serine/threonine-protein kinase PAK 2 (PAK2, Homo sapiens, UniProt Q13177)", "endpoint": "IC50", "result": "2.58 µM"}
{"Structure (SMILES)": "CCc1cc(NC(=O)COc2ccc(Cl)cc2Cl)n(C2CCC(F)(F)CC2)n1", "target": "Kir3.1/Kir3.2", "test": "activator, thallium flux", "system": "HEK293", "endpoint": "EC50", "result": "0.025 µM"}
{"Structure (SMILES)": "c1ccc2[nH]ccc2c1", "target": "uncharacterized protein (Bradysia odoriphaga, UniProt A0A2S0X9G4)", "test": "binding, competitive fluorescence displacement", "endpoint": "Ki", "result": "> 50 µM"}
{"Structure (SMILES)": "O=C(O)CCc1cnn(-c2ccccc2)c1", "target": "USP51 ZnF-UBD domain", "endpoint": "Kd", "result": "> 1000 µM"}
{"Structure (SMILES)": "C[C@@H](c1cc(Cl)cc(Cl)c1)N(C)c1ncc2c(N)nc(N)nc2n1", "target": "GAP50", "test": "binding, surface plasmon resonance", "setting": "1:1 binding model", "endpoint": "Kd", "result": "0.000912 µM"}
{"Structure (SMILES)": "CC[C@@H]1[C@H](F)C(=O)N[C@@H]1COc1nccc2cc(C(N)=O)c(OC)cc12", "target": "Calcium/calmodulin-dependent protein kinase type 1D (CAMK1D, Homo sapiens, UniProt Q8IU85)", "test": "ATP probe binding, KiNativ profiling, measured: Lys1 probe site", "system": "THP-1 cell lysate", "endpoint": "IC50", "result": "> 5 µM"}
{"Structure (SMILES)": "CCOc1ccc(-c2nc(CNCCc3ccc(F)cc3)cs2)cc1", "target": "GAP50", "test": "binding, surface plasmon resonance", "setting": "1:1 binding model", "endpoint": "Kd", "result": "40.3 µM"}
{"Structure (SMILES)": "Cc1cc(NC(=O)C2CCc3ccccc3O2)n(C2CCS(=O)(=O)C2)n1 (centres unmarked)", "target": "Kir3.1/Kir3.2", "test": "activator, thallium flux", "system": "HEK293", "endpoint": "EC50", "result": "> 10 µM"}
{"Structure (SMILES)": "O=C(O)CCc1cnccn1", "target": "USP51 ZnF-UBD domain", "endpoint": "Kd", "result": "> 1000 µM"}
{"Structure (SMILES)": "CCc1cc(NC(=O)COc2ccc(Cl)cc2Cl)n(C2CCOCC2)n1", "target": "Kir3.1/Kir3.2", "test": "activator, thallium flux", "system": "HEK293", "endpoint": "EC50", "result": "0.097 µM"}
{"Structure (SMILES)": "NC(=O)c1ccc[n+]([C@@H]2O[C@H](COP(=O)(O)OP(=O)(O)OC[C@H]3O[C@@H](n4cnc5c(N)ncnc54)[C@H](OP(=O)(O)O)[C@@H]3O)[C@@H](O)[C@H]2O)c1", "target": "NADPH--cytochrome P450 reductase (Rattus norvegicus, UniProt P00388, del2-56/del677-678)", "test": "cytochrome c reduction, competitive inhibitor", "setting": "W677X mutant, together with: NADPH", "endpoint": "Ki", "result": "1.39 ± 0.23 µM"}
{"note": "For quick reference, copied from above:"}
{"Structure (SMILES)": "CC(C)(C)c1cnc(CSc2cnc(NC(=O)C3CCN(C(=O)CCCCCCN4Cc5cc6c(cc5C4)C(=O)N(C4CCC(=O)NC4=O)C6=O)CC3)s2)o1 (centres unmarked)", "target": "CDK9", "test": "degrader, Western blot", "system": "RH5 rhabdomyosarcoma", "setting": "6 h", "endpoint": "DC50", "result": "< 0.01 µM"}
{"Structure (SMILES)": "CCCCCC/C=C\\CCCCCCCCCCOC(C)=O", "target": "uncharacterized protein (Drosophila suzukii, UniProt A0AB39ZCT4)", "test": "binding, bis-ANS competition fluorescence", "setting": "pH 7.4, together with: bis-ANS", "endpoint": "IC50", "result": "> 50 µM"}
